Assay results of several laboratories.
Each numbered part is a random draw from the data of one study; scales do not carry over between parts. Changes are numbered by the printed parent chain.

Series 1 — technique: protein-binding microarray; molecule type: double-stranded DNA, one strand shown; matrix: in vitro; tested at: 940 nM top; setting: 60-bp whole probe; added: salmon DNA 0.4 mg/ml; baseline: random background probes; direction: higher = stronger binding; shared flanks, not repeated: GCCTAGCAC … GTCTTGATTCGCTTGACGCTGCTG
Target: Interferon regulatory factor 5, full length, phosphomimetic (IRF5, Homo sapiens, UniProt Q13568-2, residues 1-514, S451D/S453D/S456D/S462D)
Oligonucleotide	fitted relative affinity [z-score]
TTAGGTTCCCTTTTCTTTTAGTGCTAG	0.915
TTAGGTATCCTACTGCTTGAGTGCTAG	-0.134
TCAGCTCTAGGTTCTCTGACTGTGCTA	-0.117
TTAGATCTCGGTTTCGGTTAGTGCTAG	8.72
TTATGTTTCCTACTGCTTTAGTGCTAG	0.791
TTAGGTCTCGATATCGGTTAGTGCTAG	4.52
TTAGATTTCAGTATCGGTTAGTGCTAG	6.24
GACGGATTCGGTTTCGGGACGTGCTAG	4.86

Series 2 — technique: RNAcompete; molecule type: RNA; matrix: in vitro; tested at: 20 nM; setting: 7-mer, probes averaged, single round; baseline: mean of 7-mers; direction: higher = stronger binding
Target: PABPC1L2, full length, GST fusion (mouse, UniProt A0ABA7IW68)
Construct (chain): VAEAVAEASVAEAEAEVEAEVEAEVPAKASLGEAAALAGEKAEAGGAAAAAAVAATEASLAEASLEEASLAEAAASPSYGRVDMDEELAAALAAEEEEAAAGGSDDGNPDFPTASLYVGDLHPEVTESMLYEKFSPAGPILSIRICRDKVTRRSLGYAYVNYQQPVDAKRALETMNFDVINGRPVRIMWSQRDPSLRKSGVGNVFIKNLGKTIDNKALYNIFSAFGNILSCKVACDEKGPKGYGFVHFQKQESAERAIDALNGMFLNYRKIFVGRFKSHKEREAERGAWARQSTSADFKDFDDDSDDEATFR
Oligonucleotide	7-mer Z-score
UAGGCUC	-0.0573
AUCGGCC	-0.0917
UGGUGGU	-0.219
GAACAAU	0.207
GAAGGCC	-0.0264
UGCGUCC	-0.345
GGUGAGG	0.204
CGAUCGG	-0.11

Mixed results
P1: PafA, mature enzyme, eGFP fusion (Elizabethkingia meningoseptica, UniProt Q9KJX5); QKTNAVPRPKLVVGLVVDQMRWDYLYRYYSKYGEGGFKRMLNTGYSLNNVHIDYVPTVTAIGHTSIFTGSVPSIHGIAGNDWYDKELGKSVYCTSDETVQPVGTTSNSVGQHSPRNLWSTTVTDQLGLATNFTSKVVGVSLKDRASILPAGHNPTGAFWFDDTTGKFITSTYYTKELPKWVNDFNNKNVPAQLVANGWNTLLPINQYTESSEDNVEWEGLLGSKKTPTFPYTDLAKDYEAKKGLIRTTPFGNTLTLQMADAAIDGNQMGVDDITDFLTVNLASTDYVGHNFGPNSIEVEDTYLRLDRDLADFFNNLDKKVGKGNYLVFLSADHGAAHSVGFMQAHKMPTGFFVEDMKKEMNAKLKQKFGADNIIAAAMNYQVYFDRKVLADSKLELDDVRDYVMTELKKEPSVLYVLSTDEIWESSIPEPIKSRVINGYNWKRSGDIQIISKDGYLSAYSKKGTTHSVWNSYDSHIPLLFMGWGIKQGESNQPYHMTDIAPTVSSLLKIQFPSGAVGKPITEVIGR
P2: viral docking peptide; KKAKRRLFTISDS; partner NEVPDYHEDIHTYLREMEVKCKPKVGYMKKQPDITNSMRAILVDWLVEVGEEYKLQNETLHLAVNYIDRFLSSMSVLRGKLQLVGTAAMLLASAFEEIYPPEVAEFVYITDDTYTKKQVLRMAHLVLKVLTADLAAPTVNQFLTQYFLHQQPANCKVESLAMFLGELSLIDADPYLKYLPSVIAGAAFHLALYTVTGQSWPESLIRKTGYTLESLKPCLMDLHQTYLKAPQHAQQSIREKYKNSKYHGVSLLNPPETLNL
Change	target	assay	system	conditions	scale	quantity	value
P1 Q100V	tungstate, free oxyanion	microfluidic competitive inhibition	in vitro, cell-free expressed	not given, derived from inhibition constants, unchanged parent 2230 nM	lower = stronger binding	oxyanion analog dissociation constant	2530 nM
P2 I10A	CCNA2, cyclin fold, Cln2 fusion (human)	yeast growth competition, sequencing	yeast	strong parent motif	baseline: not given, higher = stronger binding	normalised enrichment score	5.27

Some of these lines once more (series 2):
Oligonucleotide	7-mer Z-score
UAGGCUC	-0.0573
AUCGGCC	-0.0917
UGGUGGU	-0.219
